Experimental data from different studies.
Compare with care: the assays were run in different laboratories. Numbers after ± are the reported error.
YWHAG/RELA phospho-Ser45 p65 peptide: YWHAG/RELA, phospho-Ser45 p65 peptide (Homo sapiens, UniProt P61981+Q04206)
Chain of UniProt P61981 (whole entry, looked up): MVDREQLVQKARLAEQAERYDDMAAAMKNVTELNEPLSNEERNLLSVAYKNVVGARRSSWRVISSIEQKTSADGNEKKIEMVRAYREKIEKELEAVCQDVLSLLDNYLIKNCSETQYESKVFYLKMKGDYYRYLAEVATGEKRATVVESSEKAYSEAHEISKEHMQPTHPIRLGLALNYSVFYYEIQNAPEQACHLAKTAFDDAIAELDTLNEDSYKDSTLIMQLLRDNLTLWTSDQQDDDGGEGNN
Chain of UniProt Q04206 (whole entry, looked up): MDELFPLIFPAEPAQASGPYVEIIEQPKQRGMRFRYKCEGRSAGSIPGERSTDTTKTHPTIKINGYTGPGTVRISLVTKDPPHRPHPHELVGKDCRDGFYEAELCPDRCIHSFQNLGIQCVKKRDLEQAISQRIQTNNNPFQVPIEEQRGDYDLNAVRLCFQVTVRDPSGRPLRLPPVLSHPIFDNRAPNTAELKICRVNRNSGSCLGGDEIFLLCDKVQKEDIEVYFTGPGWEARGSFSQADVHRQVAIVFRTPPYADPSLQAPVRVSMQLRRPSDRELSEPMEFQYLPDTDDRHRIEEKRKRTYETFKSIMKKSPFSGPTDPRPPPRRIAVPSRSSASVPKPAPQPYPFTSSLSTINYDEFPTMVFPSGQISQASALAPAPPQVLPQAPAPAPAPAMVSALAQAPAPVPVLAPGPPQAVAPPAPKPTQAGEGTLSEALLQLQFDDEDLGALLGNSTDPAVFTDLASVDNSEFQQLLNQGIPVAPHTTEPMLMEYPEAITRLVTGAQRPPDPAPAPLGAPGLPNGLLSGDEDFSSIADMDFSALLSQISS
Nuclear receptor subfamily 2 group C member 2 ligand-binding domain: Nuclear receptor subfamily 2 group C member 2, ligand-binding domain (Homo sapiens, UniProt P49116)
Chain of UniProt P49116 (whole entry, looked up): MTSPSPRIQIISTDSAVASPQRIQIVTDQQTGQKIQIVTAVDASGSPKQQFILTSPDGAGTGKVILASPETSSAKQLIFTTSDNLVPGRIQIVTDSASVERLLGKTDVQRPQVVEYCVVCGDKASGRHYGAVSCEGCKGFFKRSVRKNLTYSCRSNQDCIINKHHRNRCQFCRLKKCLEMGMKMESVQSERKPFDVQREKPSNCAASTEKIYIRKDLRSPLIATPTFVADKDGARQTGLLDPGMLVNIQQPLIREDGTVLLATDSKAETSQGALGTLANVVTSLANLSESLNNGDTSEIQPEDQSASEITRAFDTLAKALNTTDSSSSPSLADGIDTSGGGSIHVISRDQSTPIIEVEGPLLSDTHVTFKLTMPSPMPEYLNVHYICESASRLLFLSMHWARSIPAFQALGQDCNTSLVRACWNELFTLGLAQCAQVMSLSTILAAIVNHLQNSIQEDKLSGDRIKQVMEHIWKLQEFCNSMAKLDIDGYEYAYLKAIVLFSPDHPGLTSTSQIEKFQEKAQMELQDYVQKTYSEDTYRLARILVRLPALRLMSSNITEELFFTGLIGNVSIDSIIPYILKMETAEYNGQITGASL
Chain of UniProt Q13555 (whole entry, looked up): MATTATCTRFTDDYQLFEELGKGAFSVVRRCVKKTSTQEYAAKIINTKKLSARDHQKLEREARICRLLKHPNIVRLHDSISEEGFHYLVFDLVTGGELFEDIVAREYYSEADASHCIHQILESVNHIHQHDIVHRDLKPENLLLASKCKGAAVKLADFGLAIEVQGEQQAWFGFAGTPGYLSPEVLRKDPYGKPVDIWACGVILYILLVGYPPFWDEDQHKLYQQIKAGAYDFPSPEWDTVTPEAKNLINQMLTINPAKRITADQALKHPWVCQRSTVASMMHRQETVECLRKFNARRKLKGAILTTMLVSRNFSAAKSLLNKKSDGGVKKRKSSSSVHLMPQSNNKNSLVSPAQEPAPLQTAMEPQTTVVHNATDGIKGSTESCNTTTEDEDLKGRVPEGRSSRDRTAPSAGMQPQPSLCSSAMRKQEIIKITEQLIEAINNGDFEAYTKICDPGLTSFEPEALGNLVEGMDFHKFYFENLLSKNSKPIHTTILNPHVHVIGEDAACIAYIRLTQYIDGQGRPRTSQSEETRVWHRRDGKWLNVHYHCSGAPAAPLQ
Chain of UniProt Q13546 (whole entry, looked up): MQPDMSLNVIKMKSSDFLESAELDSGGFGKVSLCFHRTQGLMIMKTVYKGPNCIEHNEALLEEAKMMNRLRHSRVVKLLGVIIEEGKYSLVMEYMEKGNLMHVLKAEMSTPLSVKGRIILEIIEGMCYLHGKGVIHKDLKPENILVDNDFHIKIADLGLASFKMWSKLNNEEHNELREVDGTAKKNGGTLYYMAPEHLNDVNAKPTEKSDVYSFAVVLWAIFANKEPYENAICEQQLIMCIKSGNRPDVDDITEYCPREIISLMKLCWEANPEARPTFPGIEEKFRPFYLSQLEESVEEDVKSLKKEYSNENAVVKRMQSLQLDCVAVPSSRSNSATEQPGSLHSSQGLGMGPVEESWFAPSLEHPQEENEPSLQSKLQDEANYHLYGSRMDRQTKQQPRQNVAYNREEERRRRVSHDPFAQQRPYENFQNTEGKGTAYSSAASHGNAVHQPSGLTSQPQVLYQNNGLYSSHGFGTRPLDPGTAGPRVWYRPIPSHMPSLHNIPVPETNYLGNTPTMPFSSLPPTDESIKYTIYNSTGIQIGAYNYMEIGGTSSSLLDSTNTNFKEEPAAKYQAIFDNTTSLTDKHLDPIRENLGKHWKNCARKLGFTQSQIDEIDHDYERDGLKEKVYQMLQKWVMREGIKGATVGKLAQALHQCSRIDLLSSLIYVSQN

O=Cc1ccc(S(=O)(=O)N2CCNC(=O)C2)cc1 — EC50 (YWHAG/RELA phospho-Ser45 p65 peptide; ternary complex formation, stabilizer, fluorescence anisotropy): > 1000 µM
Cc1ncsc1-c1ccc([C@H](CC(=O)N2CCN(c3ccc(C#Cc4ccc(C(=O)N5CCC(n6cc(-c7ccc8c(c7)CCN8C(=O)Cc7cccc(OC(F)(F)F)c7)c7c(N)ncnc76)CC5)cc4)cn3)CC2)NC(=O)[C@@H]2C[C@@H](O)CN2C(=O)[C@@H](NC(=O)C2(F)CC2)C(C)(C)C)cc1 — DC50 (Receptor-interacting serine/threonine-protein kinase 1 (RIPK1, Homo sapiens, UniProt Q13546); degrader, western blot; U-937): 0.0008 µM
CCCCc1oc2ccccc2c1C(=O)c1cc(I)c(OCCN(CC)CC)c(I)c1 — Kd (Nuclear receptor subfamily 2 group C member 2 ligand-binding domain; SPR imaging): 0.0357 nM
CCCCCCCCC(=O)c1cc(O)c(O)c(O)c1 — confluence (COS-7; 30 µM, 24 h, 0.1% DMSO, unit not given; relative to: vehicle control): 0.82 ± 0.03
O=Cc1cccc(-n2ccnc2)c1 — EC50 (YWHAG/RELA phospho-Ser45 p65 peptide; ternary complex formation, stabilizer, fluorescence anisotropy): > 1000 µM
O=C(CCCCCCC(=O)Nc1ccc(I)cc1)NO — viability (OCI-Ly1; 0.5 µM, 120 h): 27.5%
CN1CC2c3ccccc3Oc3ccc(Cl)cc3C2C1 (stereo not shown) — EC50 (5-hydroxytryptamine receptor 1A (HTR1A, Homo sapiens, UniProt P08908, R225A); agonist): 0.0127 µM
CC[C@@H]1[C@H](F)C(=O)N[C@@H]1COc1nccc2cc(C(N)=O)c(OC)cc12 — IC50 (Calcium/calmodulin-dependent protein kinase type II subunit gamma (CAMK2G, Homo sapiens, UniProt Q13555); ATP-site probe binding, inhibitor, ActivX ATP probe profiling; THP-1 cell lysate; probe site Lys1): 2.9 µM
CC(C)C[C@H](NC(=O)C[C@H](O)[C@H](CC(C)C)NC(=O)[C@H](Cc1c[nH]cn1)NC(=O)CNC(=O)[C@@H](NC(=O)[C@H](C)NC(=O)[C@H](Cc1c[nH]c2ccccc12)NC(=O)[C@H](CCC(N)=O)NC(=O)[C@@H](Cc1ccccc1)NC(=O)COCCOCCNC(=O)CCC(C(=O)O)N1CCN(CC(=O)O)CCN(CC(=O)O)CC1)C(C)C)C(N)=O (stereo partly shown) [lutetium-177 labelled] — tissue uptake (female BALB/c nu/nu mice, spleen; intravenous, 50 pmol, 24 h): 0.04 ± 0.009 %ID/g
Clc1ccc(COC(Cn2ccnc2)c2ccc(Cl)cc2Cl)c(Cl)c1 (stereo not shown) — Kd (Nuclear receptor subfamily 2 group C member 2 ligand-binding domain; SPR imaging): 53.1 nM
COc1cc(C)c(NC(=O)c2ccc(C=O)cc2)cn1 — EC50 (YWHAG/RELA phospho-Ser45 p65 peptide; ternary complex formation, stabilizer, fluorescence anisotropy): > 1000 µM
O=C(Nc1cnc2ccccc2c1)c1cc2[nH]ccc2cc1Cl — confluence (COS-7; 10 µM, 24 h, 0.1% DMSO, unit not given; relative to: vehicle control): 0.83 ± 0.14
Nc1ccc(C(=O)O)c(O)c1 — Kd (Nuclear receptor subfamily 2 group C member 2 ligand-binding domain; SPR imaging): 1.55 nM

A few entries again:
O=C(Nc1cnc2ccccc2c1)c1cc2[nH]ccc2cc1Cl — confluence (COS-7; 10 µM, 24 h, 0.1% DMSO, unit not given; relative to: vehicle control): 0.83 ± 0.14
